Assay results gathered from unrelated publications.
A part holds a random share of what one study measured.

Series 1
Target: Sal-like protein 4, full length isoform A (SALL4, Homo sapiens, UniProt Q9UJQ4, residues 1-1053)
Sequence of UniProt Q9UJQ4 (whole entry, looked up): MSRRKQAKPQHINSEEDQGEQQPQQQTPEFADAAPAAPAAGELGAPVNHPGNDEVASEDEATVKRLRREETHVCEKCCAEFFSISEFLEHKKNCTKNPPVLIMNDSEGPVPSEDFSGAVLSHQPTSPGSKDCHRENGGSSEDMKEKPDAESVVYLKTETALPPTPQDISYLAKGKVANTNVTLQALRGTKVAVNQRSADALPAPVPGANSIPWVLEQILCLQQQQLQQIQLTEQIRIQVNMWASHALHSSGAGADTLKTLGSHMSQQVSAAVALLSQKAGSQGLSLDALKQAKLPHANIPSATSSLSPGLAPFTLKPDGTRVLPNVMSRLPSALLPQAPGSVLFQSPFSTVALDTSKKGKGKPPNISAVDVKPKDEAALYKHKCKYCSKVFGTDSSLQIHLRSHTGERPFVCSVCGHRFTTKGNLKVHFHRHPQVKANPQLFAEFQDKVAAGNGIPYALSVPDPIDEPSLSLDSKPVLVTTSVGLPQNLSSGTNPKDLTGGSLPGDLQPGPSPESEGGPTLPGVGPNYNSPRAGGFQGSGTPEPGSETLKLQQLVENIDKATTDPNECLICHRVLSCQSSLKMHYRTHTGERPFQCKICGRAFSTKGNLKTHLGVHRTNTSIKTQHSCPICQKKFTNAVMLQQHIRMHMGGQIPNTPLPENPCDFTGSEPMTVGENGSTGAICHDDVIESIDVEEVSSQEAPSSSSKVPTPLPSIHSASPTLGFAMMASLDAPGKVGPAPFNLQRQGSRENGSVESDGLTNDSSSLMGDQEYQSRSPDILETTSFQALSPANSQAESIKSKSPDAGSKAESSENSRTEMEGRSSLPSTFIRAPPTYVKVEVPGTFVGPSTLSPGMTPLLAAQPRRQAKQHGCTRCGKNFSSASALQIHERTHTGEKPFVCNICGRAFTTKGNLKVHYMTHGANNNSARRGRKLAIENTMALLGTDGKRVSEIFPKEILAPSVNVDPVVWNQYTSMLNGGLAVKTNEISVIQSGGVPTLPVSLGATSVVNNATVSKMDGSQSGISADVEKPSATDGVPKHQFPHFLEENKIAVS
Method: universal PBM
Molecule type: double-stranded DNA, one strand shown
Sample: in vitro
Tested at: 600 nM
Notes: 8-mer, flanks averaged, mean of replicates
Reading: higher = stronger binding
| Strand | E-score |
| --- | --- |
| TAAAAATA | 0.402 |
| ACCTCGCG | -0.267 |
| CGAGTGAA | 0.0237 |
| CTACCGGA | -0.31 |
| ACGCGAAA | -0.014 |
| GCCGGTGA | -0.277 |

Series 2
Target: Interferon regulatory factor 5, full length, phosphomimetic (IRF5, Homo sapiens, UniProt Q13568-2, residues 1-514, K96S/S451D/S453D/S456D/S462D)
Method: protein-binding microarray
Molecule type: double-stranded DNA, one strand shown
Sample: in vitro
Tested at: 250 nM
Notes: 60-bp whole probe
With: salmon DNA 0.4 mg/ml
Baseline: random background probes
Reading: higher = stronger binding
Shared flanks, not repeated: GCCTAGCAC … GTCTTGATTCGCTTGACGCTGCTG
| Strand | log fluorescence [z-score] |
| --- | --- |
| TTAGGTATCGGGTATCGGTGAGTGCTA | 5.46 |
| GACGGTTTCGGACTGGGGACGTGCTAG | 3.93 |
| GACGATTTCGGGTATCGACACGTGCTA | 4.73 |
| GACAGTATCGGGTTTCGGGACGTGCTA | 6.38 |
| TCAGCTGTGGGTTTGAGACTGTGCTAG | -0.378 |
| TCACCTCTGCTGCTGGCACTGTGCTAG | -0.305 |
| GTAGATATCGGGTTTCGATTAGTGCTA | 7.62 |

Series 3
Target: Prothrombin, mature alpha-thrombin (F2, Homo sapiens, UniProt P00734)
Method: aptamer microarray, sandwich
Molecule type: DNA with 2'F-ANA
Sample: in vitro
Tested at: 200 nM
Notes: whole 15-mer aptamer, many near background
With: Cy3 exosite-II aptamer, 400 nM
Reading: higher = stronger binding
Strand: GGTTGGTGTGGTTGG
| Modification | mean fluorescence intensity [a.u.] |
| --- | --- |
| 2'F-ANA at 1 3 4 7 8 10 13 | 56.6 |
| 2'F-ANA at 2 3 5 7 12 13 14 15 | 55.7 |
| 2'F-ANA at 3 4 7 8 10 11 12 13 | 311 |
| 2'F-ANA at 1 2 3 7 8 10 | 68.9 |
| 2'F-ANA at 5 7 8 12 13 14 15 | 46.9 |

Single results of other studies
| Molecule | target | test | test system | conditions | how to read | endpoint | value |
| --- | --- | --- | --- | --- | --- | --- | --- |
| PhoQ, residues 284 288 289 292 302 303 TTCLQL | PhoP, residues 12 14 15 18 19 SPWRL (Escherichia coli, UniProt P23836) | Sort-seq, item: YFP reporter | E. coli | PhoQ-PhoP variant library, with: 10 µM Mg2+ | baseline: high Mg2+ state, higher = stronger signaling | fold induction | 2.03 |
